Published values gathered from unrelated publications.
Each line is one published result; not all experiments were run side by side. Values joined by “and” are separate records of one study, mostly repeats; a detail may differ. Numbers after ± are the reported error.
B4GALT1: Beta-1,4-galactosyltransferase 1 (B4GALT1, Homo sapiens, UniProt P15291)
GBA2: Beta-glucosidase (GBA2, Homo sapiens, UniProt Q9HCG7)
CASP3: Caspase-3 (CASP3, Homo sapiens, UniProt P42574)
PTH1R: Parathyroid hormone/parathyroid hormone-related peptide receptor (PTH1R, Homo sapiens, UniProt Q03431)

CN1CCCN(CC(=O)NC2CCc3c[nH]nc3C2)CC1 (centres unmarked)  luminescence (B4GALT1; enzyme activity, inhibitor, UDP-Glo; 10 µM; lower means stronger inhibition): 60000 a.u.
CC(C)Oc1cc(Cl)ccc1CNc1cc(-c2ccccc2)nc2ncnn12  cAMP luminescence (GPR3 (Homo sapiens, UniProt P46089); cAMP reporter; human cells; 10 µM; higher is more cAMP): 2900 a.u. and 1690 a.u. and 1880 a.u. and 6010 a.u. and 3250 a.u. and 27700 a.u. and 3180 a.u. and 11300 a.u.
CC(C)(C)COCCOCCN1C[C@H](O)[C@@H](O)[C@H](O)[C@@H]1CO  selectivity ratio (GBA2; inhibitor, 4MU-β-D-glucopyranoside; HEK293T homogenates overexpressing GBA2; reference: GCS IC50 over GBA2 IC50): 5240
O=C(N1CCCC1)n1cc(-c2ccc(-c3ccccc3)cc2)nn1  SILAC activity ratio (Dipeptidyl peptidase 2 (Dpp7, Mus musculus, UniProt Q9ET22); probe labelling, inhibitor, competitive ABPP-SILAC, measured: Dpp7; mouse T cells; concentration not given, 4 h, protein level; reference: treated over DMSO cells, lower = stronger inhibition): 1.2
CC1(C)C[C@@H](Nc2cccc(-c3sc(C(=O)O)c(OCC(=O)O)c3Cl)c2)CCN1S(=O)(=O)Cc1cccc(NC(=O)CN2CCC(c3ccc4c(c3)oc(=O)n4C3CCC(=O)NC3=O)CC2)c1 (some centres unmarked)  remaining protein (Tyrosine-protein phosphatase non-receptor type 2 (Ptpn2, Mus musculus, UniProt Q06180); degrader, Western blot; B16-F10; 0.1 µM): 22.8% and 20.8%
CC(=O)N[C@@H](CC(=O)O)C(=O)N[C@H](C(=O)N[C@@H](C)C(=O)N[C@@H](CC(=O)O)C(=O)COC(=O)c1c(C)cccc1C)[C@@H](C)OCc1ccccc1  kinact/KI (CASP3; enzyme activity, inhibitor): 2.07e+06 M⁻¹ s⁻¹
C=CC(=O)N1CCCC(n2c(=O)c3ncccc3n(Cc3ccc(Oc4ccccc4)cc3)c2=O)C1 (centres unmarked)  Tm fold change (Copper homeostasis protein cutC homolog (CUTC, Homo sapiens, UniProt Q9NTM9); thermal proteome profiling, measured: CUTC; 10 µM; reference: untreated): 2.44
Nc1nc(SCc2ccccc2)nn1S(=O)(=O)c1ccc(F)cc1  probe labeling increase (LYPLAL1 (Homo sapiens, UniProt Q5VWZ2); enzyme activity, activator, gel-based ABPP; purified protein; concentration not given, with: FP-rhodamine; reference: DMSO): 1.2 fold
Fc1ccc(Nc2nc(NC3CCCCC3)c3ccccc3n2)cc1F  maximal inhibition (ADRB2 (Homo sapiens, UniProt P07550, T164V); β-arrestin2 recruitment, antagonist, BRET; mutant T164V; reference: isoprenaline maximal response): -12.2%
CC(C)CCC[C@@H](C)[C@H]1CC[C@H]2[C@@H]3CC=C4C[C@@H](OCCCCCN5C[C@H](O)[C@@H](O)[C@H](O)[C@@H]5CO)CC[C@]4(C)[C@H]3CC[C@]12C  selectivity ratio (GBA2; inhibitor, 4MU-β-D-glucopyranoside; HEK293T homogenates overexpressing GBA2; reference: GCS IC50 over GBA2 IC50): 50
Cc1cc(C)nc(SCC(=O)Nc2ncc(Cc3cccc(OCc4cn(-c5ccc(Cl)cc5)nn4)c3)s2)n1  ΔTm (SIRT2 (Homo sapiens, UniProt Q8IXJ6); thermal stability, DSF; 25 µM): 4.17 °C
CC(=O)NC(Cc1ccccc1Cl)C(=O)N1CCCC1C(=O)N1CCCC1C(=O)N1CCC2C=CC3CCC(C(=O)O)N3C(=O)C21 (centres unmarked)  binding free energy (Vasodilator-stimulated phosphoprotein, EVH1 domain (VASP, Homo sapiens, UniProt P50552); fluorescence titration; 25 °C): -7.5 kcal/mol
O=C(NC1CCN(Cc2ccccc2)CC1)C(C(F)(F)F)C(F)(F)F  IC50 (Chymotrypsinogen A (Bos taurus, UniProt P00766); enzyme activity, inhibitor): inactive
CC(C)[C@@H]1NC(=O)[C@H](Cc2ccccc2)NC(=O)CSC[C@@H](C(N)=O)NC(=O)[C@H](CCC(=O)O)NC(=O)[C@H](CO)NC(=O)[C@H](Cc2c[nH]c3cccc(Cl)c23)NC(=O)[C@H](C2CCCCC2)NC(=O)[C@H](C(C)C)NC(=O)[C@H](Cc2ccc(O)cc2)NC(=O)[C@H](CC(=O)O)NC(=O)[C@H](Cc2c[nH]c3ccccc23)NC(=O)[C@H](Cc2ccc(N)nc2)NC(=O)[C@H](Cc2c[nH]c3ccc(Cl)cc23)NC(=O)[C@H](CCC(=O)O)NC1=O  remaining activity (Interleukin-1 receptor-like 2 (IL1RL2, Homo sapiens, UniProt Q9HB29); reporter gene (SEAP), inhibitor, HEK-Blue IL-36R reporter; HEK-Blue IL-36R cells; 0.046 µM, 6 h, with: IL-36β 100 ng/mL): 78.7%
CCCCCC(O)/C=C/C=O (centres unmarked)  probe labelling ratio (TPI1 (Homo sapiens, UniProt P60174); acylphosphate-ATP probe SILAC-ABPP; ZAK-transfected HEK293T; 100 µM, with: acylphosphate-ATP probe; reference: DMSO over compound-treated): 0.64
C#CCCCCNC(=O)c1ccc(N(C(=O)C=C)c2ccc(Br)cc2)cc1  reactivity ratio (DEGS1 (Homo sapiens, UniProt O15121); mass spectrometry profiling; H460 cell lysate; 100 µM over 10 µM, UniProt O15121; reference: high over low concentration): 1.86
CCCCCCCCCCCCCCCC(=O)N[C@@H](CCCNC(=N)N)C(=O)NCCCC[C@H](NC(=O)[C@H](CCC(N)=O)NC(=O)[C@H](Cc1c[nH]cn1)NC(=O)[C@H](CCCC)NC(=O)[C@H](CC(C)C)NC(=O)[C@H](CCC(N)=O)NC(=O)[C@@H](NC(=O)[C@H](CCC(=O)O)NC(=O)C(C)(C)NC(=O)[C@@H](NC(=O)C1(N)CCCC1)C(C)C)[C@@H](C)CC)C(N)=O  Emax (normalized AUC) (PTH1R; cAMP response, agonist, GloSensor cAMP; GP-2.3; washout phase): 101 ± 2%
C[C@@H](OCCCCCN1C[C@H](O)[C@@H](O)[C@H](O)[C@H]1CO)c1ccc(-c2ccccc2)cc1  selectivity ratio (GBA2; inhibitor, 4MU-β-D-glucopyranoside; HEK293T homogenates overexpressing GBA2; reference: GCS IC50 over GBA2 IC50): 20
Cc1ccc(CN)cc1  kcat of deuterated substrate (Maoa (Rattus norvegicus, UniProt P21396); substrate; pH 7.5, 25 °C): 0.025 ± 0.00167 s⁻¹
CCCCCCCOCCCCCN1C[C@H](O)[C@@H](O)[C@H](O)[C@@H]1CO  selectivity ratio (GBA2; inhibitor, 4MU-β-D-glucopyranoside; HEK293T homogenates overexpressing GBA2; reference: GCS IC50 over GBA2 IC50): 3
CN1CCCC1CC(=O)N1CCC(c2cccc(O)c2)CC1 (centres unmarked)  luminescence (B4GALT1; enzyme activity, inhibitor, UDP-Glo; 10 µM; lower means stronger inhibition): 59000 a.u.
CC(=O)N[C@@H](CC(C)C)C(=O)N[C@@H](CCC(=O)O)C(=O)N[C@H](C(=O)N[C@@H](CC(=O)O)C(=O)COC(=O)c1c(C)cccc1C)[C@@H](C)OCc1ccccc1  kinact/KI (CASP3; enzyme activity, inhibitor): 345000 M⁻¹ s⁻¹
N#CN1CC[C@H](C(=O)Nc2nc3c(s2)CN(C(=O)Cn2cc(COCCOCCOCCOCCNC(=O)CCCC[C@@H]4SC[C@@H]5NC(=O)N[C@@H]54)nn2)CC3)C1  iBAQ abundance (PARK7 (Homo sapiens, UniProt Q99497); probe binding, affinity probe, neutravidin pull-down LC-MS/MS; HEK293T, cell lysate; 5 µM, 1 h, mean of three replicates, unit not given; higher = more pulled down): 3.35e+09
O=C(CCCCCCS)Nc1ccccc1  TΔS (HDAC8 (Homo sapiens, UniProt Q9BY41); ITC; triethanolamine buffer; pH 7.5): 4.3 kcal/mol
COc1cccc(Nc2cc(=O)oc3ccccc23)c1  agonist activity (ADRA1B (Homo sapiens, UniProt P35368); intracellular Ca2+ mobilization, agonist; COS-7; 500 µM; reference: 3 µM ionomycin): 33 ± 15.1%
CC[C@H](NC(=O)[C@H](CC(C)C)NC(C)=O)C(=O)N[C@@H](CCC1CCCCC1)C(=O)N[C@@H](CC(=O)O)C(=O)COC(=O)c1c(C)cccc1C  kinact/KI (CASP3; enzyme activity, inhibitor): 104000 M⁻¹ s⁻¹
CCCCCCCCOCCCCCN1C[C@H](O)[C@@H](O)[C@H](O)[C@H]1CO  selectivity ratio (GBA2; inhibitor, 4MU-β-D-glucopyranoside; HEK293T homogenates overexpressing GBA2; reference: GBA1 IC50 over GBA2 IC50): 50
C#CCOC(=O)[C@]1(C)C=C(C(=O)OC(C)(C)C)C(=O)CC1  initial slope relative to negative control (MAPK14 (Homo sapiens, UniProt Q16539); kinase activity, D-site sensor; reference: negative control): 1.55 and 1.51 and 1.91
CC(C)=CCC/C(C)=C/CC/C(C)=C/CN1C[C@@H](O)[C@H](O)[C@H](O)[C@@H]1CO  selectivity ratio (GBA2; inhibitor, 4MU-β-D-glucopyranoside; HEK293T homogenates overexpressing GBA2; reference: GCS IC50 over GBA2 IC50): 719
CC(=O)c1cnc(N)nc1N1CC[C@H]1c1nn2ccc(Cl)c2c(=O)n1-c1ccccc1  target engagement (PIK3CG (Homo sapiens, UniProt P48736); KiNativ; Jurkat cell lysate; 1 µM, 0.25 h): > 99%
OC[C@@H]1[C@@H](O)[C@H](O)[C@@H](O)CN1CCCCCOCC1CC1  selectivity ratio (GBA2; inhibitor, 4MU-β-D-glucopyranoside; HEK293T homogenates overexpressing GBA2; reference: GBA1 IC50 over GBA2 IC50): 2830
CCCCCCCCCCCCCCCC(=O)N[C@@H](CCC(=O)O)C(=O)NCCCC[C@H](NC(=O)[C@H](CCC(N)=O)NC(=O)[C@H](Cc1c[nH]cn1)NC(=O)[C@H](CCCC)NC(=O)[C@H](CC(C)C)NC(=O)[C@H](CCC(N)=O)NC(=O)[C@@H](NC(=O)[C@H](CCC(=O)O)NC(=O)C(C)(C)NC(=O)[C@@H](NC(=O)C1(N)CCCC1)C(C)C)[C@@H](C)CC)C(N)=O  Emax (PTH1R; cAMP response, agonist, GloSensor cAMP; GP-2.3; washout phase): 115 ± 6%

A few entries again:
C=CC(=O)N1CCCC(n2c(=O)c3ncccc3n(Cc3ccc(Oc4ccccc4)cc3)c2=O)C1 (centres unmarked)  Tm fold change (Copper homeostasis protein cutC homolog (CUTC, Homo sapiens, UniProt Q9NTM9); thermal proteome profiling, measured: CUTC; 10 µM; reference: untreated): 2.44
CC(C)Oc1cc(Cl)ccc1CNc1cc(-c2ccccc2)nc2ncnn12  cAMP luminescence (GPR3 (Homo sapiens, UniProt P46089); cAMP reporter; human cells; 10 µM; higher is more cAMP): 2900 a.u. and 1690 a.u. and 1880 a.u. and 6010 a.u. and 3250 a.u. and 27700 a.u. and 3180 a.u. and 11300 a.u.
CN1CCCN(CC(=O)NC2CCc3c[nH]nc3C2)CC1 (centres unmarked)  luminescence (B4GALT1; enzyme activity, inhibitor, UDP-Glo; 10 µM; lower means stronger inhibition): 60000 a.u.
Nc1nc(SCc2ccccc2)nn1S(=O)(=O)c1ccc(F)cc1  probe labeling increase (LYPLAL1 (Homo sapiens, UniProt Q5VWZ2); enzyme activity, activator, gel-based ABPP; purified protein; concentration not given, with: FP-rhodamine; reference: DMSO): 1.2 fold
